# Published values collected from several papers.
# Each numbered part is a random draw from the data of one study; scales do not carry over between parts. Positions count from the first letter of the parent shown.

# Block 1
# Target: Histone acetyltransferase KAT6A, both winged helices, GST fusion (KAT6A, Homo sapiens, UniProt Q92794, residues 1-181)
# Technique: protein binding microarray
# Molecule type: double-stranded DNA, one strand shown
# Medium: in vitro
# Concentration: not given
# Setting: 8-mer, flanks averaged, mean of 2 arrays, mostly near background
# Reference: not given
# Reading: higher = stronger binding
# Residues (chain): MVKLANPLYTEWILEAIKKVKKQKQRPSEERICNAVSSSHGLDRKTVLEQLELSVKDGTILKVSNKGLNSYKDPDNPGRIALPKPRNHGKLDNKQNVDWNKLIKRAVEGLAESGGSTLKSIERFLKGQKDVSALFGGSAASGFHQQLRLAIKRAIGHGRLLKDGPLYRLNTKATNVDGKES
Sequence,E-score
ACCGCCGC,0.316
GACCGTAA,0.244
CCCTTTTA,-0.204
AGTAAAGC,-0.000165
ATCGCAAC,-0.0169
AGCCACTC,-0.0825
GAAACTAC,-0.0101
AACTCCGG,0.13
GGCCAAAC,0.078
CAGTGCAA,-0.0897

# Block 2
# Target: RNA binding protein fox-1 homolog 2, RRM domain, GST-SBP tag (RBFOX2, Homo sapiens, UniProt O43251-10, residues 100-194)
# Technique: RNA Bind-n-Seq
# Molecule type: RNA
# Medium: in vitro
# Concentration: 365 nM
# Setting: natural RNA segment, single round, ends assumed
# Reference: no-protein control
# Reading: higher = stronger binding
# Constant ends, left off below: GGGAGUUCUACAGUCCGACGAUC … UGGAAUUCUCGGGUGCCAA
# Target sequence (chain): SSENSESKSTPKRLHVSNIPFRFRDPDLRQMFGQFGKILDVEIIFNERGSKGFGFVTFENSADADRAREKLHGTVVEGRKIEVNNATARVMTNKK
Sequence,RBNS enrichment (R)
AAGAGGGAUGGAAGAAAAGAACAAAGAGAAACUGUUCCUCCCACCCCCUUCCCUGAUGCCAGGGGCACCAGACUGAUUCUGAGGCACAAAUAAAAGAGGCUUCAUACCGG,0.376
AGCAUGAAGUUUGAGUUUUGUGUUUUUCCAAAGGAUACUUCCUUGGCCCUUUUUCUUUAUUGACUAGACCACCAGAGGAGGAUGUGUGGGAUUGUAGGCAAACCCACCUG,0.971
UGAGGCCAGGCUGCUCCAAGGGCCGCAUGAGCCCUAAUCUGCCACAGAGCAACCCAGGUUAAACACAGCCCAUGCACAAAGCCACAGGCUAAAUCCUGUGGAAUUGUUUU,0.527
GGAGCUGCCUUCAUUCAGGCGGGUAGCUGCACUGGGCAUGGGGUGGUGGUGGGAGCUUACCGCCACCUAUUCAAGCUCUCAGCUACUCCUGAAACGGGCAGAGAUGAUGA,0.776
CUGAACCAGAAUUACAUGUUAAUGAACAGUGUACCUUUUAACAGUGUAAAUCACGGAAUAUCCGUGAAGGGAUUUCUUAAUUUAUUUUUUACCGGUUGAUUGAAAUAUCA,0.449
CGGGUAGCCAGAGGCUUUGAGCCUCAUUUCCUUGCUCUGACUUCAAUAAAGACUUUUCAAUCAAACCAACUACACUGUCUUCUUGUAGAGUUUCCUGGUGAAAGCUCUGG,0.292
UACGCCUAGUAGAGCUCGGUGGUGACGCUCCCUUACUCUUAGAUGAAUCAGUAGCUGUGAAAAUAACUGUCACCACAAAAUUACUGUCAUCGAACAUUGACGCAGGUGAU,0.399
CUGCACUGUGUGACCUCUCUGUUGCCAGGGUGGGCAAGGGCUCAGCCACUCUGCCCACUAAAGUGCCCCACCAUGAAACAUUCUGGAGUUGGCCAUCCCAAAUUUCAUCG,0.257

# Block 3
# Target: CCND1, cyclin fold, Cln2 fusion (human)
# Technique: yeast growth competition, sequencing
# Medium: yeast
# Setting: weak parent motif
# Reference: not given
# Reading: higher = stronger binding
# Starting sequence: SLBP docking peptide (human); ARYKRKLLINDFG; partner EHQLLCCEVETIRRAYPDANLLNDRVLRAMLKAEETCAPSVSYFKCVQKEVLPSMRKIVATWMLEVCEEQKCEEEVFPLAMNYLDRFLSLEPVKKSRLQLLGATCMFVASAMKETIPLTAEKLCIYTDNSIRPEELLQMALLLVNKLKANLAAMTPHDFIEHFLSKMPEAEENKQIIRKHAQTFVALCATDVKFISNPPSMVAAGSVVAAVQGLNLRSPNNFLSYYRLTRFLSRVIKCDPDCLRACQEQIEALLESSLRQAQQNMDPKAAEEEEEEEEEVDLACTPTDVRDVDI
Substitution,normalised enrichment score
ARYKRKLLIADFG [N10A],-0.097
CRYKRKLLINDFG [A1C],-0.0263
ARYSRKLLINDFG [K4S],-0.34
ARYKQKLLINDFG [R5Q],-0.321
ARYKRELLINDFG [K6E],0.142
ARYKRMLLINDFG [K6M],-0.157
ARYKRKLLINAFG [D11A],0.608
ARYKEKLLINDFG [R5E],0.152
ARYKRKLHINDFG [L8H],-0.313
ARYKRKLKINDFG [L8K],-0.729

# Other studies, line by line
Substance,target,test,test system,conditions,how to read,endpoint,result
"PhoQ, residues 284 288 289 292 302 303 SIHLQL","PhoP, residues 12 14 15 18 19 SYFRT (Escherichia coli, UniProt P23836)","Sort-seq, measured: YFP reporter",E. coli,"PhoQ-PhoP variant library, with: 10 µM Mg2+","reference: high Mg2+ state, higher = stronger signaling",fold induction,12.8

# Repeated from above (block 3):
Substitution,normalised enrichment score
ARYKRMLLINDFG [K6M],-0.157
ARYKRKLLINAFG [D11A],0.608
ARYKEKLLINDFG [R5E],0.152
